Published values gathered from unrelated publications.
Numbers after ± are the reported error.

Structure (SMILES)	assay	system	conditions	scale	quantity	result
CC(=O)N[C@H](CSSC[C@H](N)C(=O)O)C(=O)N[C@H](C)C(=O)N[C@H](CCCNC(=N)N)C(=O)N[C@H](CCCNC(=N)N)C(=O)N[C@H](CCCNC(=N)N)C(=O)N[C@H](C)C(=O)N[C@H](CCCNC(=N)N)C(N)=O		male human, plasma	intravenous, 2 mg, single dose, healthy volunteers		Vd	136 L
CS(=O)(=O)c1cc(Cl)cc(-c2cc(Cl)c(Cl)cc2Cl)c1Cl		whole cow milk	mean of all doses	relative to: total added	distribution into milk fat	> 80%
CC(=O)Nc1ncc(CN2CC[C@H](Oc3cccc([18F])n3)C[C@@H]2C)s1		human, plasma	dose not given, 3 h		unchanged parent	20 to 30%
COc1ccc(/C=C/c2ccc(-c3ccc(C)cn3)nc2)cc1	TCSPC	EtOH			radiative decay rate constant	0.39 ns⁻¹
COc1ccc([C@@H]2CC(=O)c3c(O)cc(O[C@@H]4O[C@H](CO[C@@H]5O[C@@H](C)[C@H](O)[C@@H](O)[C@H]5O)[C@@H](O)[C@H](O)[C@H]4O)cc3O2)cc1O		rat plasma	31.25 ng/mL, three freeze-thaw cycles	relative to: nominal concentration	relative error	-2.49%
O=C([O-])CN1CCN(CC(=O)[O-])CCN(CC(=O)NC[C@H]2CC[C@H](C(=O)N[C@H](Cc3cnc4ccccc4c3)C(=O)NCCCC[C@H](NC(=O)N[C@@H](CCC(=O)O)C(=O)O)C(=O)O)CC2)CCN(CC(=O)[O-])CC1.[64Cu+2]		ICR mouse, male, blood	intravenous, 0.74 MBq		distribution half-life	1.2 min
C#CC1(NC(=O)C(CC(C)(C)F)NC(c2ccc(-c3ccc(S(C)(=O)=O)cc3)cc2)C(F)(F)F)CC1 (stereo not shown)	LC-MS UV trace	aqueous buffer	concentration not given, 23 h, pH 7.5, 37 °C, added: cysteine 10 mM		cysteine adduct formation	0%
CC12CC(c3ccc(S(C)(=O)=O)cc3)C3=C4CCC(=O)C=C4CCC3C1CCC2(O)C(F)(F)C(F)(F)F (stereo not shown)	refers to: total radioactivity	human, urine	oral, 5 mg, 21 days		dose recovered in urine	13.1 ± 1.71%
C[C@]12C[C@H](c3ccc(-c4ccc(C(=O)O)cc4)cc3)C3=C4CCC(=O)C=C4CC[C@H]3[C@@H]1CC[C@@]2(O)C(F)(F)C(F)(F)F		rat, plasma			fraction unbound	0.007
N#CC1(c2ccc3c(N)ncnn23)OC(COP(=O)(O)O)C(O)C1O (stereo not shown)	LC-MS/MS	CD-1 mouse male, kidney	oral, 100 mg/kg of remdesivir		Tmax	1 h
Cc1ccc(OCC(=O)N(Cc2cccs2)c2ccn[nH]2)cc1		beagle dog, male, plasma	oral gavage, 10 mg/kg		half-life	1.92 h
CC(C)[C@H](NC(=O)CNC(=O)[C@H](CCC(N)=O)NC(=O)[C@H](C)N)C(=O)O	LC-MS/MS	human, plasma	intravenous, 30 mg/kg three times daily, day 1, first dose, 10 min infusion, geometric mean		AUC(0-inf)	646 ng·h/mL
CCCC[C@@H]1NC(=O)[C@@H](NC(=O)[C@H](CCC(=O)O)NC(=O)CNC(=O)CN2CCN(CC(=O)O)CCN(CC(=O)O)CCN(CC(=O)O)CC2)CCCCNC(=O)C[C@@H](C(N)=O)NC(=O)[C@H](C(C)C)NC(=O)[C@@H]2CCCN2C(=O)[C@H](CCCNC(=N)N)NC(=O)CNC(=O)[C@H](Cc2c[nH]c3ccccc23)NC(=O)[C@H](CCCNC(=N)N)NC(=O)[C@@H](Cc2ccccc2)NC(=O)[C@H](Cc2c[nH]cn2)NC(=O)[C@H](CCC(=O)O)NC1=O [gallium-67 labelled]		C57 mice with B16/F1 melanoma	intravenous, 0.037 MBq/mouse, 4 h	relative to: tumour over lung	tumour to lung ratio	73.8
COc1cc2c(cc1OC)CN(CCCCn1ccc3cc(OCC[18F])ccc31)C2		male ICR mice	intravenous, 280 kBq, 60 min post-injection		muscle uptake	1.93 ± 0.17 %ID/g
CC(C)[C@H](NC(=O)[C@@H]1CCCN1C(=O)[C@H](CCCNC(=N)N)NC(=O)[C@H](CS)NC(=O)[C@H](Cc1c[nH]c2ccccc12)NC(=O)[C@H](CCCNC(=N)N)NC(=O)[C@@H](Cc1ccccc1)NC(=O)[C@H](Cc1c[nH]cn1)NC(=O)[C@H](CCC(=O)O)NC(=O)[C@H](CS)NC(=O)[C@H](CS)NC(=O)CNC(=O)[C@@H]1CC(=O)N[C@@H](CCCNC(=N)N)C(=O)NCC(=O)N[C@@H](CC(=O)O)C(=O)N[C@H](Cc2ccc(O)cc2)C(=O)N1)C(N)=O [technetium-99m labelled]		C57 mice B16/F1 melanoma female	iv, 2 h, added: NDP-MSH blockade	relative to: tumour over kidneys	tumour-to-tissue ratio	0.17
CC(C)c1cnc(-c2cc(Cl)ccc2F)cc1Nc1ccncc1C(=O)NC(CO)CO	refers to: anaemia	human patients	oral, dose not given, grade 2		patients with related SAE	0%
COC(=O)c1ccc(-c2cn(Cc3cc(Cl)ccc3O[11CH3])nn2)cc1	PET, 1TCM	rhesus macaque, hippocampus	dose not given		distribution volume VT	0.461 mL/cm³
CC[C@H](C)[C@H](NC(=O)[C@@H]1CCCN1C(=O)CNC(=O)[C@H](Cc1ccccc1)NC(=O)[C@H](CC(N)=O)NC(=O)[C@H](CC(N)=O)NC(=O)[C@H](CO)NC(=O)[C@H](CO)NC(=O)[C@H](Cc1c[nH]cn1)NC(=O)[C@@H](NC(=O)[C@H](CC(C)C)NC(=O)[C@H](Cc1ccccc1)NC(=O)[C@H](CC(N)=O)NC(=O)[C@H](C)NC(=O)[C@H](CC(C)C)NC(=O)[C@H](CCCNC(=N)N)NC(=O)[C@H](CCC(N)=O)NC(=O)[C@@H](NC(=O)[C@H](C)NC(=O)[C@@H]1CSSC[C@H](NC(=O)[C@@H](N)CCCCN)C(=O)N[C@@H](CC(N)=O)C(=O)N[C@@H]([C@@H](C)O)C(=O)N[C@@H](C)C(=O)N[C@@H]([C@@H](C)O)C(=O)N1)[C@@H](C)O)C(C)C)C(=O)N[C@@H](CC(C)C)C(=O)N[C@@H](CO)C(=O)N1CCC[C@H]1C(=O)N[C@H](C(=O)N[C@@H](CC(N)=O)C(=O)N[C@H](C(=O)NCC(=O)N[C@@H](CO)C(=O)N[C@@H](CC(N)=O)C(=O)N[C@H](C(=O)N[C@@H](Cc1ccc(O)cc1)C(N)=O)[C@@H](C)O)C(C)C)[C@@H](C)O	ion mobility mass spectrometry	nitrogen drift gas	monomer ion charge +3		collision cross section	546.5 ± 4.8 Å²
Cn1cc(-c2cc(N3CCCCS3(=O)=O)ccc2N[C@H]2CC[C@H](C)CC2)c2cc[nH]c2c1=O (stereo in doubt)		Sprague-Dawley rat, plasma	intravenous, 1 mg/kg		Vss	4.21 L/kg
CSCOC1C(=O)C2(C)C(OCSC)CC3OCC3(OC(C)=O)C2C(OC(=O)c2ccccc2)C2(O)CC(OC(=O)C(O)C(C=C(C)C)NC(=O)OC(C)(C)C)C(C)=C1C2(C)C (stereo not shown)		female Sprague-Dawley rat, plasma	intravenous, 2 mg/kg		AUC(0-inf)	271 ng·h/mL
CNC(=O)N[C@]1(C)CCC[C@@]2(C)C3CC[C@@]4(C)C[C@]3(CCC21)CC4=O (single isomer, unassigned)		rat plasma	400 ng/mL, 101 d, -80 °C, long-term storage stability	relative to: nominal concentration	relative error	0.6%
C=C(c1cc(F)c(C(=O)O)c(F)c1)c1cc2c(cc1C)C(C)(C)CCC2(C)C		Sprague-Dawley rat, male	oral, 100 mg/kg, 2 h, sesame oil vehicle		blood triglycerides	53 ± 14.5 mg/dL
Cn1c(=O)oc2ccc(-c3ccc(CC(C#N)NC(=O)C4CNCCCO4)c(F)c3)cc21 (stereo not shown)	refers to: monocyte count increased	human	40 mg single dose, fasted		subjects with TEAE	0%
CC(C)(O)c1ncc([S@](N)(=O)=NC(=O)Nc2c3c(cc4c2CCC4)CCC3)s1		human, plasma	oral, 100 mg, single dose, fed, healthy volunteers		AUC(0-t)	112000 ng·h/mL
CN1CCC[C@]1(C)/C=C/S(=O)(=O)NC(=O)Nc1c2c(cc3c1CCC3)CCC2		human, plasma	oral, 250 mg, single dose, healthy volunteers		AUC(0-inf)	247000 ng·h/mL
C[C@H]1Nc2nc(=O)c3[nH]ccc3n2Cc2ccc(Cl)cc21		Sprague-Dawley rat, female, plasma	oral, 125 mg/kg/day	relative to: rat over human 15 mg	exposure ratio	33
CCCCC/C=C/C=C/C(=O)NCC(C)C		rat plasma	250 ng/mL, 48 h, 4 °C, short-term storage medium QC	relative to: nominal concentration	relative error	-1.73%
O=C(CCc1ccc(CNC(C(=O)OC2CCCC2)C2CCCCC2)cn1)NO (stereo not shown)		human, plasma	oral, 20 mg, single dose, patients		Cmax	47.4 ng/mL

A few entries again:
Structure (SMILES)	assay	system	conditions	scale	quantity	result
CC(=O)N[C@H](CSSC[C@H](N)C(=O)O)C(=O)N[C@H](C)C(=O)N[C@H](CCCNC(=N)N)C(=O)N[C@H](CCCNC(=N)N)C(=O)N[C@H](CCCNC(=N)N)C(=O)N[C@H](C)C(=O)N[C@H](CCCNC(=N)N)C(N)=O		male human, plasma	intravenous, 2 mg, single dose, healthy volunteers		Vd	136 L
CS(=O)(=O)c1cc(Cl)cc(-c2cc(Cl)c(Cl)cc2Cl)c1Cl		whole cow milk	mean of all doses	relative to: total added	distribution into milk fat	> 80%
CC(=O)Nc1ncc(CN2CC[C@H](Oc3cccc([18F])n3)C[C@@H]2C)s1		human, plasma	dose not given, 3 h		unchanged parent	20 to 30%
